Results pooled from the literature.
Organism: Trypanosoma brucei

For O=C1NC(=O)C2(N[C@@H]1Cc1ccccc1)C1CC3CC(C1)CC2C3 (stereo partly drawn), the IC90 was 57200 nM (parasite growth; pH 7.4, blood stage).
For CCCCCC(=O)N[C@H](C(=O)N[C@@H](CCCC)C(=O)N[C@@H](CC(C)C)C(=O)[C@@]1(C)CO1)C(C)C, the EC50 was greater than 4000 nM (parasite growth, SYBR Green; 72 h).
The IC50 of CN1CC(=O)NC(=O)C12CCCCCC2 is reported as greater than 400000 nM (parasite growth; pH 7.4, blood stage).
CNC(=O)c1c(F)cccc1Nc1nc(Nc2cc3c(cc2OC)CCN3C(=O)CN(C)C)nc2[nH]ccc12 has an EC50 of 1980 nM (parasite growth).
For CCCCCC(=O)N[C@@H](Cc1ccccc1)C(=O)N[C@@H](CCCC)C(=O)N[C@@H](CC(C)C)C(=O)[C@@]1(C)CO1, the EC50 was 1040 nM (parasite growth, SYBR Green; 72 h).
With c1cc(-c2ccc3ncnc(Nc4ncco4)c3c2)cc(N2CCOCC2)c1 the GI50 was 420 nM (parasite growth, SYBR Green; 48 h).
For O=C(N/N=C/c1ccc([N+](=O)[O-])s1)c1ccccc1I, the EC50 was 1470 nM (parasite growth, resazurin; 72 h).
CCCCCC(=O)NC(CC(=O)N(CC)CC)C(=O)NC(Cc1ccc(F)cc1)C(=O)NC(Cc1ccc(F)cc1F)C(=O)C1(C)CO1 (stereo not drawn) has an EC50 of 220 nM (parasite growth, SYBR Green; GAMBIENSE).
The IC50 of O=C(O)CN1C(=O)CNC2(C1=O)C1CC3CC(C1)CC2C3 (stereo not drawn) is reported as 469000 nM (parasite growth; pH 7.4, blood stage).
For C[n+]1cc(NC(=O)c2ccc3ccc4ccc(C(=O)Nc5cc6ccccc6[n+](C)c5)nc4c3n2)cc2ccccc21, the unchanged genes was 16900 genes (RNA-seq; Lister 427 bloodstream form; 2 × EC50, 4 h; reference: untreated).
With CCCCCC(=O)N[C@@H](Cc1ccccc1)C(=O)N[C@@H](CCCC)C(=O)N[C@@H](Cc1ccccc1)C(=O)[C@@]1(C)CO1 the EC50 was greater than 4000 nM (parasite growth, SYBR Green; 72 h).
CN(C)CCNC(=O)c1cccn2c(=O)c3cc4ccccc4cc3nc12 gave an unchanged genes of 16900 genes (RNA-seq; Lister 427 bloodstream form; 2 × EC50, 4 h; reference: untreated).
The EC50 of CCCCCC(=O)N[C@@H](Cc1c[nH]c2ccccc12)C(=O)N[C@@H](CCCC)C(=O)N[C@@H](CC(C)C)C(=O)[C@@]1(C)CO1 is reported as 195 nM (parasite growth, SYBR Green; 72 h).
For Cc1cnc(CNC(=O)c2c(=O)c3ccc(N4CCCN(C)CC4)nc3n3c2sc2ccccc23)cn1, “downregulated G4-containing genes” read 7 genes (RNA-seq; Lister 427 bloodstream form; 2 x EC50, 4 h, overlap, with peaks, G4 ChIP-seq; reference: untreated).
O=C(O)CN1C(=O)C(Cc2ccccc2)NC2(C1=O)C1CC3CC(C1)CC2C3 (stereo not drawn) gave an IC90 of 208000 nM (parasite growth; pH 7.4, blood stage).

Repeated from above:
With c1cc(-c2ccc3ncnc(Nc4ncco4)c3c2)cc(N2CCOCC2)c1 the GI50 was 420 nM (parasite growth, SYBR Green; 48 h).
For O=C(N/N=C/c1ccc([N+](=O)[O-])s1)c1ccccc1I, the EC50 was 1470 nM (parasite growth, resazurin; 72 h).
